Experimental data pooled from the literature.
Compare with care: the assays were run in different laboratories.
Chain of UniProt P07332 (whole entry, looked up): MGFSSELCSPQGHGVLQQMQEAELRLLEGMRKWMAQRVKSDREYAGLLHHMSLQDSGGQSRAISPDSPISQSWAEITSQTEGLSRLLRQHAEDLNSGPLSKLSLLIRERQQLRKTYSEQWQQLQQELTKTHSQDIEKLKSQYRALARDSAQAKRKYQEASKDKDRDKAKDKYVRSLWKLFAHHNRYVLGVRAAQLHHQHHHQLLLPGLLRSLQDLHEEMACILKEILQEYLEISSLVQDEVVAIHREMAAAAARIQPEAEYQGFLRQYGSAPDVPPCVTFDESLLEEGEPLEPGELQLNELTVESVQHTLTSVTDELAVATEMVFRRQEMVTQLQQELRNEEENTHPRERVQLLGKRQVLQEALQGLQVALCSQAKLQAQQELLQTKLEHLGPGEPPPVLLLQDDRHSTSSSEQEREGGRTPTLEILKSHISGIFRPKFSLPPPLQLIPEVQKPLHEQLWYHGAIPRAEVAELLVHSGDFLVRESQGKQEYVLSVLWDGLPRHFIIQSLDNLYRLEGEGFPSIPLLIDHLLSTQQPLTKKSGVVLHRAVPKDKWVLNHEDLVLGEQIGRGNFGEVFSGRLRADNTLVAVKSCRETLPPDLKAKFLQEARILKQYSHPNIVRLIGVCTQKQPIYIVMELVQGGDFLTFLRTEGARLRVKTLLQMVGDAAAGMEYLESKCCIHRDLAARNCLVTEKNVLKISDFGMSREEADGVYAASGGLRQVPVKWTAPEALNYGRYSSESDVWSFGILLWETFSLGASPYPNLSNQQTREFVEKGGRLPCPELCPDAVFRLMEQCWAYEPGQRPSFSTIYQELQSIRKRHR
Chain of UniProt O60331 (whole entry, looked up): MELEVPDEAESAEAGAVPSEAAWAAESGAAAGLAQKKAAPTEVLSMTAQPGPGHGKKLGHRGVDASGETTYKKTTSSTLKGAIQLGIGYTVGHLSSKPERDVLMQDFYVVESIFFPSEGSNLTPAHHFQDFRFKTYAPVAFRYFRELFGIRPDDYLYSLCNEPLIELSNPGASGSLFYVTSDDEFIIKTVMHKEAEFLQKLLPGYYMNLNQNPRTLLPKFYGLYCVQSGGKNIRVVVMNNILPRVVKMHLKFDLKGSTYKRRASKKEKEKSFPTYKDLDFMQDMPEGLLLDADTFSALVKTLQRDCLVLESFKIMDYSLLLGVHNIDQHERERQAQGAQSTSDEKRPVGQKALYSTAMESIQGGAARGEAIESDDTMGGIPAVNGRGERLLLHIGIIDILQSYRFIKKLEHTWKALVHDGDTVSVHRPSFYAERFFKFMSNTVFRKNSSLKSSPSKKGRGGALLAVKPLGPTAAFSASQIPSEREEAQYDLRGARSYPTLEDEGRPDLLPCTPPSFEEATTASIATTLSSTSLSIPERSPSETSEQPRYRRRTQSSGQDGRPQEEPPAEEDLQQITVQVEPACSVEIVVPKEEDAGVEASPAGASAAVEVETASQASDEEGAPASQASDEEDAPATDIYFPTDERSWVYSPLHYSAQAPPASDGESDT

SMILES	tested on	test	setting	quantity	result
COc1cc(/C=C/C(=O)C(=Cc2ccccc2)C(=O)/C=C/c2ccc(O)c(OC)c2)ccc1O	WRL68	cell growth or viability, MTT	0.8 µg/mL, 48 h	viability	10.8%
COc1ccc(NC(=O)Nc2cccc(-c3cn(Cc4ccccc4C)nn3)c2)cc1	L02	cell growth or viability, CCK-8	50 µM, 72 h	viability	114%
Nc1ccn([C@@H]2O[C@H](CO)[C@@H](O)C2(F)F)c(=O)n1	MCF7	cell growth or viability, MTT	0.3125 µg/mL, 48 h	viability	78.9%
O=c1[nH]c2c3c(sc2c(=O)n1O)CCC3	HFF	cell growth or viability, MTS	10 µM, 7 days	viability	130%
O=C(Nc1ccc(Cl)cc1)Nc1cccc(-c2cn(Cc3cccc(Br)c3)nn2)c1	L02	cell growth or viability, CCK-8	50 µM, 72 h	viability	87.5%
O=S(=O)(NNc1nnc(Cl)c2ccccc12)c1ccc(F)cc1	Vero	cell growth or viability, MTT	125 µg/mL	viability	52.7%
CC(=O)Nc1ccc(O)cc1	THLE-2	cell growth or viability, MTT	100 µM, 96 h	viability	15%
Cc1ccc(C(CS(=O)(=O)c2ccccc2)=NNC2=NC(=O)C(=NNc3ccccc3)S2)cc1	WM 266-4	cell growth or viability, MTT	1.6 µg, 48 h	viability	59.1%
COc1cccc2c1C(=O)c1c(O)c3c(c(O)c1C2=O)C[C@@](O)(C(=O)CO)C[C@@H]3O[C@H]1C[C@H](N)[C@H](O)[C@H](C)O1	SW480	cell growth or viability, MTT	50 µg/mL	viability	24.5%
CNc1ncc2c(/C=C/C(=O)N3CCC(OC)CC3)nn(Cc3cccc(C(F)(F)F)c3)c2n1	FES (Homo sapiens, UniProt P07332)	enzyme activity, inhibitor, radiometric	1 µM	remaining activity	90%
O=c1[nH]c2sc3c(c2c(=O)n1O)CCC3	HFF	cell growth or viability, MTS	10 µM, 7 days	viability	76%
CC(C)n1ncc2c(C(=O)NCC3(C)CNC3)cc(C3CC3)nc21	HeLa	cell growth or viability, neutral red	9.2 µM	viability	97.3%
CC1(C)CN(C(=O)Cn2c(=O)c(C(=O)NCc3ccc(Cl)cc3)cc3nccnc32)C1	MRC5	cell growth or viability, CCK-8	40 µM	viability	95%
O=c1[nH]c2scc(-c3ccc(Cl)cc3)c2c(=O)n1O	HFF	cell growth or viability, MTS	10 µM, 7 days	viability	90%
CNC(=O)c1cc(Oc2ccc(NC(=O)Nc3ccc(Cl)c(C(F)(F)F)c3)cc2)ccn1	WISH	cell growth or viability, MTT	50 µM, 24 h	viability	27.1%
COc1cc(/C=C/C(=O)C(=Cc2ccc(O)cc2)C(=O)/C=C/c2ccc(O)c(OC)c2)ccc1O	WRL68	cell growth or viability, MTT	24.8 µg/mL, 48 h	viability	77.2%
Cc1ccc(S(=O)(=O)[N](Nc2ccc([N+](=O)[O-])cc2[N+](=O)[O-])[Sn]([Cl])[Cl])cc1	HEK293	cell growth or viability, MTT	7.8125 µg/mL	viability	91.6%
COc1cccc(NC(=O)Nc2ccc(Oc3nc4ccccc4n4cnnc34)cc2)c1	WISH	cell growth or viability, MTT	6.25 µM, 24 h	viability	100%
Cn1cnc2c1c(=O)n(CC(=O)Nc1c(Cl)cccc1Cl)c(=O)n2C	Vero	cell growth or viability, MTT	125 µg/mL	viability	93.8%
O=c1[nH]c2sccc2c(=O)n1O	HFF	cell growth or viability, MTS	10 µM, 7 days	viability	103%
COc1cc(-c2cncc3c2CN(C)Cc2cc(N4CCNCC4)ccc2-3)cc(OC)c1OC	PIP5K1C (Homo sapiens, UniProt O60331)	enzyme activity, inhibitor	1 µM	remaining activity	100%

Some of these lines once more:
SMILES	tested on	test	setting	quantity	result
Cc1ccc(S(=O)(=O)[N](Nc2ccc([N+](=O)[O-])cc2[N+](=O)[O-])[Sn]([Cl])[Cl])cc1	HEK293	cell growth or viability, MTT	7.8125 µg/mL	viability	91.6%
O=c1[nH]c2sc3c(c2c(=O)n1O)CCC3	HFF	cell growth or viability, MTS	10 µM, 7 days	viability	76%
CC1(C)CN(C(=O)Cn2c(=O)c(C(=O)NCc3ccc(Cl)cc3)cc3nccnc32)C1	MRC5	cell growth or viability, CCK-8	40 µM	viability	95%
